{"data": "Measured values from different studies", "technique": "steady-state kinetics", "B1": "sacB Y421F (Priestia megaterium, UniProt D5DC07); chain KGNDSKDFNNSYGISHITRDNMVKIPQQQNSDQFKVPAFDESTIKNIASAKGKNASGNTIDLDVWDSWPLQNADGTVATYHGYQIVFALAGDPKDSNDTSVYLFYKKAGDKSIDSWKNAGRVFKDSDKFVPNDPHLKNQTQEWSGSGTLTKDGKVRLFYTDYSGKQYGKQTLTTAQVNMSQPNDNTLKVDGVEDYKSIFDGDGKIYQTVQQFIDEGGYDTGDNHTLRDPHYIEDNGHKYLVFEANTGTEDGYQGEDSLYNRAYYGGNNPFFQSEKKKLLEGSNKEKASLANGALGIIELNDDYTLKKVMKPLITSNTVTDEIERANIFKKDGKWYLFTDSRGSKMTIDGIGQDDVYMLGYVSNTLTGKYKPLNDTGLVLHMDLDPNDKTFTFSHFAVPQTKGDNVVITSYMTNRGFYEDNHSTFAPSFLVNIDGSKTSVVKDRVLEQGQLTVDED", "B2": "enzyme M56A (Micromonospora griseorubida, UniProt Q49492); chain MSPSTGVELYLDLLKRTVSNFIYQDATHVAGLITEAAFVEEARESGEDYPTVAHTAIGMKRLNNLQHCVESALRDGVPGDVLETGVWRGGACIFARGILKAYDVRDRTVWVADSFQGFPKITDDDHPMDAEMNLHQYNEAVDLPTSLATVQRNFSRYGLLDDQVRFLPGWFKDTMPTAPFERLAVLRMDGDSYGATMDVLTHAYPRLSPGGFAIIDDYCIPACREAVHEYRDRHGISDEIVEIDRQGVYWRRSA", "B3": "TylM1 H123N (Streptomyces fradiae, UniProt P95748); chain MAHSSATAGPQADYSGEIAELYDLVHQGKGKDYHREAADLAALVRRHSPKAASLLDVACGTGMHLRHLADSFGTVEGLELSADMLAIARRRNPDAVLHHGDMRDFSLGRRFSAVTCMFSSIGNLAGQAELDAALERFAAHVLPDGVVVVEPWWFPENFTPGYVAAGTVEAGGTTVTRVSHSSREGEATRIEVHYLVAGPDRGITHHEESHRITLFTREQYERAFTAAGLSVEFMPGGPSGRGLFTGLPGAKGETR", "B4": "enzyme (Listeria monocytogenes, UniProt Q8Y829); chain MKKVITYGTFDLLHWGHIHLLKRAKALGDYLIVAISSDEFNRIKHKEAYHSYEHRKLIIEAIRYVDEVIPENNWEQKRDDIEKYGIDVFVMGDDWEGEFDFLKDVCEVVYLPRTEGISTSQIKDELK", "B5": "putA G1011P (Rhodobacter capsulatus, UniProt D5AN87); chain MTDLSALGPKAKFAPEAEVLQALVAQAALPQPQLDRIAARGADLVARIRAEAKPSLMEHFLAQYGLSTREGVALMCLAEAMLRVPDTATIDALIEDKIAPSDWGKHLGTAASSLVNASTWALMLTGKVLDDGAGGIAGTLRGAMRRLGEPVIRAAVGQAMREMGRQFVLGETIEKALERAEKREAEGYTFSYDMLGEAALTAADAERYRLAYAQAITAIGKAATRGSIAANPGISIKLSALHPRYEVAQEARVMAELVPVVRDLARAAARAGIALHIDAEEQDRLALSLRVMAAVIADPETAGWEGFGAVVQAYGKRAGAAIDALAAMARAAGRRINIRLVKGAYWDAEMKRAQVEGHPGFPLFTSKTGTDVAYICLAAKLFGLNDCIYPQFATHNAHTVAAVLEMAAGRPFEFQRLHGMGARLHDIVLRETGGRCRIYAPVGAHRDLLAYLVRRLLENGANSSFVNQIVNESVPPAEVAACPFAALPTARAPRGLLAPADLFGAGRVNAQGFDLSDPEVLARIEAARDVTLPDAAPIVAGPVSGTLRPVRNPATGAVVAQVTEADAATVALALDAAQVWSAPAATRAAVLCRAADLYEENFGPIFAALAQEAGKTLGDAVSELREAVDFLRYYAAEGAADTRPPRGAVVAISPWNFPLAIFTGQVAAALMAGNAVLAKPAEQTPIIAALAVRLLHQAGVPETALQLLPGDGPTVGAALTRDPRVAGVVFTGSTETAQIIARAMAAHLAPGTPLIAETGGLNAMVVDSTALPEQAVRDVVASAFRSAGQRCSALRCLYVQDDIAPHLIGMLKGAMEELVSGDPARLSTDVGPVIDAEAKAGIETYLAANKARILHRSTAPEGGHFVAPALLQVGGIADLEREIFGPVLHLATFAAEDLPAVIAAINARGYGLTFGLHSRIDARVETVAETIRAGNIYVNRNQIGAVVGSQPFGGEGLSGTGPKAGGPLYLNRFYAPEPVVAVGGWTEAATPILPEARETQLDEIFLPGPTPELNRLTRHQRGPILCLGPGAEAASAQAAAVVALGGQAVQASGAVSPKALETLTPLAGVLWWGAAEMGRAYAQALAVRPGPLVPLITAKPDLAHVAHERHLCVDTTAAGGNAALLAG", "B6": "cyc1 V329M (Streptomyces coelicolor, UniProt Q9K499); chain MHAFPHGTTATPTAIAVPPSLRLPVIEAAFPRQLHPYWPKLQETTRTWLLEKRLMPADKVEEYADGLCYTDLMAGYYLGAPDEVLQAIADYSAWFFVWDDRHDRDIVHGRAGAWRRLRGLLHTALDSPGDHLHHEDTLVAGFADSVRRLYAFLPATWNARFARHFHTVIEAYDREFHNRTRGIVPGVEEYLELRRLTFAHWIWTDLLEPSSGCELPDAVRKHPAYRRAALLSQEFAAWYNDLCSLPKEIAGDEVHNLGISLITHHSLTLEEAIGEVRRRVEECITEFLAVERDALRFADELADGTVRGKELSGAVRANVGNMRNWFSSMYWFHHESGRYMVDSWDDRSTPPYVNNEAAGEK", "B7": "SULT1B1 (Homo sapiens, UniProt O43704); chain MLSPKDILRKDLKLVHGYPMTCAFASNWEKIEQFHSRPDDIVIATYPKSGTTWVSEIIDMILNDGDIEKCKRGFITEKVPMLEMTLPGLRTSGIEQLEKNPSPRIVKTHLPTDLLPKSFWENNCKMIYLARNAKDVSVSYYHFDLMNNLQPFPGTWEEYLEKFLTGKVAYGSWFTHVKNWWKKKEEHPILFLYYEDMKENPKEEIKKIIRFLEKNLNDEILDRIIHHTSFEVMKDNPLVNYTHLPTTVMDHSKSPFMRKGTAGDWKNYFTVAQNEKFDAIYETEMSKTALQFRTEI", "B8": "enzyme (Brachypodium distachyon, UniProt I1IPY7); chain MEQGKAALGWAARDASGHLSPYNFSRRVQKDDDVTIKVLFCGICHTDLHIIKNEWGNALYPIVPGHEVVGVVTDVGPGVKNFKAGETVGVGYFLDSCRTCDSCSKGHENYCPTLVLTSNGVDYDGATTQGGFSDVVVVNQDYVVRVPDTLPPDGAAPLLCAGVTVYSPMMQYGLNAPGKHLGVVGLGGLGHMAVKFGKAFGMKVTVISSSLRKREEALDRLGADDFLVSSDAEQMKAAAGAMDGIIDTVSAGHPIVPLLELLRPMGQMVVCGAPSEPLQLPAYAVITGGKRIAGNGVGSVRDCQAMLDFAGEHGITADVEVVKMDYVNTAVERLERNDVRYRFVIDVAGSLQQGGAA", "B9": "BaiA2 (Clostridium scindens, UniProt P19337); chain MNLVQDKVTIITGGTRGIGFAAAKIFIDNGAKVSIFGETQEEVDTALAQLKELYPEEEVLGFAPDLTSRDAVMAAVGQVAQKYGRLDVMINNAGITSNNVFSRVSEEEFKHIMDINVTGVFNGAWCAYQCMKDAKKGVIINTASVTGIFGSLSGVGYPASKASVIGLTHGLGREIIRKNIRVVGVAPGVVNTDMTNGNPPEIMEGYLKALPMKRMLEPEEIANVYLFLASDLASGITATTVSVDGAYRP", "B10": "alanine racemase H125A (Geobacillus stearothermophilus, UniProt P10724); chain MNDFHRDTWAEVDLDAIYDNVENLRRLLPDDTHIMAVVKANAYGHGDVQVARTALEAGASRLAVAFLDEALALREKGIEAPILVLGASRPADAALAAQQRIALTVFRSDWLEEASALYSGPFPIAFHLKMDTGMGRLGVKDEEETKRIVALIERHPHFVLEGLYTHFATADEVNTDYFSYQYTRFLHMLEWLPSRPPLVHCANSAASLRFPDRTFNMVRFGIAMYGLAPSPGIKPLLPYPLKEAFSLHSRLVHVKKLQPGEKVSYGATYTAQTEEWIGTIPIGYADGWLRRLQHFHVLVDGQKAPIVGRICMDQCMIRLPGPLPVGTKVTLIGRQGDEVISIDDVARHLETINYEVPCTISYRVPRIFFRHKRIMEVRNAIGRGESSA", "B11": "Saccharopine reductase Y99F (Saccharomyces cerevisiae, UniProt P38999); chain MGKNVLLLGSGFVAQPVIDTLAANDDINVTVACRTLANAQALAKPSGSKAISLDVTDDSALDKVLADNDVVISLIPYTFHPNVVKSAIRTKTDVVTSSFISPALRELEPEIVKAGITVMNEIGLDPGIDHLYAVKTIDEVHRAGGKLKSFLSYCGGLPAPEDSDNPLGYKFSWSSRGVLLALRNSAKYWKDGKIETVSSEDLMATAKPYFIYPGYAFVCYPNRDSTLFKDLYHIPEAETVIRGTLRYQGFPEFVKALVDMGMLKDDANEIFSKPIAWNEALKQYLGAKSTSKEDLIASIDSKATWKDDEDRERILSGFAWLGLFSDAKITPRGNALDTLCARLEELMQYEDNERDMVVLQHKFGIEWADGTTETRTSTLVDYGKVGGYSSMAATVGYPVAIATKFVLDGTIKGPGLLAPYSPEINDPIMKELKDKYGIYLKEKTVA", "note": "Each line is one published result; not all experiments were run side by side.", "UniProt Q9JIP7, sequence (whole entry, looked up)": "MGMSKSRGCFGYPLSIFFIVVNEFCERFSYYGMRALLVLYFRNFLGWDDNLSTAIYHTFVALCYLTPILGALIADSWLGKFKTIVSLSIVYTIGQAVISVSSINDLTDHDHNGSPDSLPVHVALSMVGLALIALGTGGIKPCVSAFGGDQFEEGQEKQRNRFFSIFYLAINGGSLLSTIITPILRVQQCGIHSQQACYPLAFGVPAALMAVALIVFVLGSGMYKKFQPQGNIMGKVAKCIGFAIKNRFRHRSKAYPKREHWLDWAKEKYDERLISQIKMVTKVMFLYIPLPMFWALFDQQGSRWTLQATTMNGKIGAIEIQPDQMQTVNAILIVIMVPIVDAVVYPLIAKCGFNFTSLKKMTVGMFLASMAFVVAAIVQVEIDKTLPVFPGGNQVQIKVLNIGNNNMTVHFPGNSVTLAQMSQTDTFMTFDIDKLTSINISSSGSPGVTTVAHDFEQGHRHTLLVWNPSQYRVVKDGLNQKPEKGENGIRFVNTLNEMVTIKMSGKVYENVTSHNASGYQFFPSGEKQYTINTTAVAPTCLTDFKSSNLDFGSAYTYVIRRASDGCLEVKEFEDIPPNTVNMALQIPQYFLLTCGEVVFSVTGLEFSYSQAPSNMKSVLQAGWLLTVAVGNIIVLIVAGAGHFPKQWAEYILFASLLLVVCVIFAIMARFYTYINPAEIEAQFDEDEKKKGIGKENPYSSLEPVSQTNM"}
{"Molecule": "B1 (sacB Y421F)", "substrate": "OC[C@H]1O[C@@](CO)(O[C@H]2O[C@H](CO)[C@@H](O)[C@H](O)[C@H]2O)[C@@H](O)[C@@H]1O", "setting": "pH 6.6", "Km [µM]": 31700}
{"Molecule": "protein (Candidatus Protochlamydia amoebophila, UniProt Q6MEN4)", "substrate": "O=c1ccn([C@@H]2O[C@H](COP(=O)(O)OP(=O)(O)OP(=O)(O)O)[C@@H](O)[C@H]2O)c(=O)[nH]1", "setting": "pH 7, 30 °C, transporter, labelled substrate, apparent, not purified", "Km [µM]": 676}
{"Molecule": "B2 (enzyme M56A)", "substrate": "CC[C@H]1OC(=O)/C=C/[C@H](C)[C@@H](O[C@@H]2O[C@H](C)C[C@H](N(C)C)[C@H]2O)[C@@H](C)C[C@@H](C)C(=O)/C=C/C=C/[C@@H]1CO[C@@H]1O[C@H](C)[C@@H](O)[C@@H](O)[C@H]1OC", "Km [µM]": 6.4}
{"Molecule": "B3 (TylM1 H123N)", "substrate": "Cc1cn([C@H]2C[C@H](O)[C@@H](COP(=O)(O)OP(=O)(O)O[C@H]3O[C@H](C)[C@@H](O)[C@H](N)[C@H]3O)O2)c(=O)[nH]c1=O", "setting": "25 °C, together with: SAM", "Km [µM]": 930}
{"Molecule": "SLC15A1 (Mus musculus, UniProt Q9JIP7)", "substrate": "CC1=C(C(=O)O)N2C(=O)[C@@H](NC(=O)[C@H](N)c3ccc(O)cc3)[C@H]2SC1", "setting": "pH 6.5, 31 °C", "Km [µM]": 2100}
{"Molecule": "B4 (enzyme)", "substrate": "O=P(O)(O)OC[C@H](O)CO", "setting": "pH 8, 37 °C, apparent", "Km [µM]": 6560}
{"Molecule": "B5 (putA G1011P)", "substrate": "O=C(O)[C@@H]1CCCN1", "setting": "pH 8, 23 °C", "Km [µM]": 10100}
{"Molecule": "B6 (cyc1 V329M)", "substrate": "CC(C)=CCC/C(C)=C/CC/C(C)=C/CO[P@@](=O)(O)OP(=O)(O)O", "setting": "pH 6.5, 30 °C, together with: MgCl2 10 mM", "Km [µM]": 6.5}
{"Molecule": "B7 (SULT1B1)", "substrate": "Nc1ncnc2c1ncn2[C@@H]1O[C@H](COP(=O)(O)OS(=O)(=O)O)[C@@H](OP(=O)(O)O)[C@H]1O", "setting": "pH 7.4, 37 °C, together with: 1-naphthol", "Km [µM]": 1.97}
{"Molecule": "B8 (enzyme)", "substrate": "NC(=O)C1=CN([C@@H]2O[C@H](COP(=O)(O)OP(=O)(O)OC[C@H]3O[C@@H](n4cnc5c(N)ncnc54)[C@H](OP(=O)(O)O)[C@@H]3O)[C@@H](O)[C@H]2O)C=CC1", "setting": "pH 5.35, 23 °C, cofactor varied", "Km [µM]": 1.3}
{"Molecule": "B9 (BaiA2)", "substrate": "NC(=O)c1ccc[n+]([C@@H]2O[C@H](COP(=O)(O)OP(=O)(O)OC[C@H]3O[C@@H](n4cnc5c(N)ncnc54)[C@H](OP(=O)(O)O)[C@@H]3O)[C@@H](O)[C@H]2O)c1", "setting": "pH 8.7, 37 °C, cofactor varied, together with: glycocholic acid 1.4 mM", "Km [µM]": 84}
{"Molecule": "B10 (alanine racemase H125A)", "substrate": "C[C@@H](N)C(=O)O", "setting": "pH 9, room temperature, together with: NAD+ 10 mM", "Km [µM]": 500}
{"Molecule": "B11 (Saccharopine reductase Y99F)", "substrate": "NC(=O)c1ccc[n+]([C@@H]2O[C@H](COP(=O)(O)OP(=O)(O)OC[C@H]3O[C@@H](n4cnc5c(N)ncnc54)[C@H](OP(=O)(O)O)[C@@H]3O)[C@@H](O)[C@H]2O)c1", "setting": "pH 9, 25 °C, together with: saccharopine", "Km [µM]": 740}
{"note": "Some of these lines once more:"}
{"Molecule": "B8 (enzyme)", "substrate": "NC(=O)C1=CN([C@@H]2O[C@H](COP(=O)(O)OP(=O)(O)OC[C@H]3O[C@@H](n4cnc5c(N)ncnc54)[C@H](OP(=O)(O)O)[C@@H]3O)[C@@H](O)[C@H]2O)C=CC1", "setting": "pH 5.35, 23 °C, cofactor varied", "Km [µM]": 1.3}
{"Molecule": "B9 (BaiA2)", "substrate": "NC(=O)c1ccc[n+]([C@@H]2O[C@H](COP(=O)(O)OP(=O)(O)OC[C@H]3O[C@@H](n4cnc5c(N)ncnc54)[C@H](OP(=O)(O)O)[C@@H]3O)[C@@H](O)[C@H]2O)c1", "setting": "pH 8.7, 37 °C, cofactor varied, together with: glycocholic acid 1.4 mM", "Km [µM]": 84}
